Experimental data gathered from unrelated publications.
Compare with care: the assays were run in different laboratories. Values joined by “and” are separate records of one study, mostly repeats; a detail may differ. ± marks the error that the study gave.

| SMILES | assay | test system | setting | scale | endpoint | value |
| --- | --- | --- | --- | --- | --- | --- |
| CN(Cc1ccccc1)C(=O)CN1CCN(CC(=O)[O-])CCN(CC(=O)[O-])CC1.[18F-].[Sc+3] | – | mouse, bone | intravenous, 1 h | – | tracer uptake | 1.5 %ID/g |
| CCn1c(=O)c(-c2cc(NC(=O)Nc3ccccc3)c(F)cc2Br)cc2cnc(N)cc21 | – | human plasma | 150 ng/mL, 1 weeks, 4 °C, low QC | – | mid-term stability accuracy | -1.73% |
| O=C(NS(=O)(=O)c1cccs1)c1cc2ccccc2n1Cc1ccc(Br)c2ccccc12 | – | KM mouse, chronic hyperuricaemia model | dose not given, day 17 | – | body weight | 36.5 g and 30 g and 34.6 g and 37.7 g and 32.2 g and 33.6 g |
| C/C(N)=N/C(=N\S(=O)(=O)c1ccc(C(F)(F)F)cc1)N1C[C@H](c2ccccc2)C(c2ccc(Cl)cc2)=N1 | – | rat | – | reference: in vivo over in vitro CLint | empirical scaling factor | 29 |
| C[N+](C)(CCOCCOCCOCCNC(=S)Nc1ccc(C[C@H]2CN(CC(=O)[O-])CCN(CC(=O)[O-])CCN2CC(=O)[O-])cc1)C[c-]1cccc1.[64Cu+2].[Fe+2].c1cc[cH-]c1 | radio-HPLC | human plasma | 240 min, 37 °C | – | intact compound | 76.8 ± 0.5% |
| O=C([O-])CN1CCN(CC(=O)[O-])CCN(Cc2cccc(C(=O)[O-])n2)CC1.[18F-].[Sc+3] | – | mouse, lung | intravenous, 1 h | – | tracer uptake | 0.25 %ID/g |
| O=C(Nc1cnccc1-c1ccc([18F])cc1)c1ccnc(NC(=O)C2CC2)c1 | PET imaging | FVB/NJ mice, both sexes, brain | intravenous, 15 min post-injection, P-gp inhibited, added: tariquidar 15 mg/kg iv, 2 h before | – | SUV | 0.46 |
| C=C[C@]1(C)C[C@@H](OC(=O)CSc2ccc(NC(=O)c3ccco3)cc2)[C@]2(C)[C@H](C)CC[C@]3(CCC(=O)[C@H]32)[C@@H](C)[C@@H]1O | – | Mycoplasma gallisepticum-infected chickens, plasma | intramuscular, 80 mg/kg, 0.25 h | – | plasma concentration | 6380 ng/mL and 6800 ng/mL and 10200 ng/mL and 8640 ng/mL and 6580 ng/mL and 6450 ng/mL and 6420 ng/mL and 9120 ng/mL |
| O=C(O)c1cccc(CN2Cc3cccc(n3)CN(Cc3cccc(C(=O)O)n3)Cc3cccc(n3)C2)n1 | differential pulse voltammetry | – | – | reference: Ag/AgCl | Mn(II)/Mn(III) half-wave potential | 0.904 V and 0.648 V |
| CC[C@H](C)[C@@H]1NC(=O)[C@H](Cc2ccc(O)cc2)NC(=O)CCCSC[C@@H](C(=O)N(CC(=O)N[C@@H](CC(C)C)C(=O)NCC(N)=O)Cc2ccc(F)cc2)NC(=O)[C@H](CC(N)=O)NC(=O)[C@H](CCC(N)=O)NC1=O | – | human | intranasal, 200 µg single dose | – | severe adverse events | 0% |
| Cc1nn(-c2nc3c(F)cc(F)cc3s2)c(O)c1C(c1ccc(C(F)(F)F)cc1)c1c(C)nn(-c2nc3c(F)cc(F)cc3s2)c1O | – | ICR mouse, plasma | intraperitoneal, 10 mg/kg | – | AUC(0-inf) observed | 31800 ng·h/mL and 30300 ng·h/mL and 27600 ng·h/mL |
| CN(Cc1ccccc1)C(=O)CN1CCN(CC(=O)[O-])CCN(Cc2cccc(C(=O)[O-])n2)CC1.[18F-].[Sc+3] | – | mouse, bone | intravenous, 1 h | – | tracer uptake | 0.27 %ID/g |
| N#C[C@@H]1CCCN1C(=O)CNC(=O)c1ccnc2ccc(OCCCN3CCN(C(=O)CCc4ccc5c(c4)CN4CCN(Cc6cc(CCC(=O)O)ccc6O)CC(=O)[O][Al-]([18F])([O]C(=O)C4)[O]5)CC3)cc12 (stereo partly drawn) | – | BALB/c nude mice, U-87 MG tumour | 120 min post-injection | reference: tumour over blood | tumour-to-organ ratio | 10.6 ± 0.78 |
| COc1cccc(OC)c1-c1cc(C(=O)NC2(C(=O)O)C3CC4CC(C3)CC2C4)nn1-c1ccc(C(=O)N(C)CCCN(C)C(=O)[C@H](CCCCNC(=O)[C@H](CC(C)C)NC(=O)C2OC2C(=O)O)NC(=O)CN2CCN(CC(=O)[O-])CCN(CC(=O)[O-])CCN(CC(=O)[O-])CC2)cc1C(C)C.[177Lu+3] (mixture of isomers) | – | HT-29 xenograft mouse, kidney | 168 h | reference: initial uptake | renal retention | 12 ± 8% |
| CC[C@H](C)[C@@H](C(=O)N[C@@H](CC(C)C)C(=O)N[C@@H](CO)C(=O)N[C@@H](CO)C(=O)N[C@H](C(=O)N[C@@H](CCC(=O)O)C(=O)N[C@H](C(=O)NCC(=O)N[C@@H](CO)C(=O)N[C@@H](CC(N)=O)C(=O)N[C@H](C(=O)N1C[C@H](O)C[C@H]1C(N)=O)[C@@H](C)O)C(C)C)[C@@H](C)O)N(C)C(=O)[C@H](C)NC(=O)CN(C)C(=O)[C@H](Cc1ccccc1)NC(=O)[C@H](CO)NC(=O)[C@H](CO)NC(=O)[C@H](CCCNC(=N)N)NC(=O)[C@H](CCC(N)=O)NC(=O)[C@H](CC(C)C)NC(=O)[C@H](Cc1ccccc1)NC(=O)[C@H](Cc1c[nH]cn1)NC(=O)[C@H](C)NC(=O)[C@H](CC(C)C)NC(=O)[C@H](CCCNC(=N)N)NC(=O)[C@H](CCC(=O)O)NC(=O)[C@@H](NC(=O)[C@H](C)NC(=O)[C@@H]1CCCNC(=O)C[C@H](NC(=O)[C@H](CCCNC(=N)N)NC(=O)CC[C@H](NC(=O)CCCCCCCCCCCCCCCCCCC(=O)O)C(=O)O)C(=O)NCC(=O)N[C@@H]([C@@H](C)O)C(=O)N[C@@H](C)C(=O)N[C@@H]([C@@H](C)O)C(=O)N1)[C@@H](C)O | RP-HPLC | water | 1.0 mg/mL, 7 days, pH 7.5, 40 °C | – | main peak area remaining | 98% |
| O=C(Nc1cnccc1-c1ccc([18F])nc1)c1ccnc(NC(=O)C2CC2)c1 | ex vivo gamma counting | FVB/NJ mice, both sexes, brain stem | intravenous, 120 min | – | mean SUV | 0.024 |
| Cc1ncsc1-c1ccc(CNC(=O)[C@@H]2C[C@@H](O)CN2C(=O)[C@@H](NC(=O)COCC(C)(COCCOCCOCCNC(=O)C[C@@H]2N=C(c3ccc(Cl)cc3)c3c(sc(C)c3C)-n3c(C)nnc32)COCCOCCOCCNC(=O)C[C@@H]2N=C(c3ccc(Cl)cc3)c3c(sc(C)c3C)-n3c(C)nnc32)C(C)(C)C)cc1 | – | male C57BL/6 mouse, plasma | subcutaneous, 5 mg/kg, 8 h, single dose | – | concentration | 1960 ng/mL |
| N#Cc1cccc(-c2ccc3ncc(-c4cc(F)cc(F)c4)c(N4CCC(N)CC4)c3c2)c1OC1OC(C(=O)O)C(O)C(O)C1O (stereo not drawn) | – | healthy male, faeces | oral, 20 mg, 120 h, 14C-paltusotine dosed | reference: dose | radioactivity recovered | 20.4% |
| C=C(NC(=O)c1csc(-c2nc3c(cc2O)-c2nc(cs2)C(=O)NC(C(C)O)C(=O)NC(=C(C)OC)c2nc(cs2)C(=O)NC2c4nc(cs4)C(=O)NC(COC(=O)c4c5c6c(cccc6n4O)COC(=O)C(OC4CC(C)(O)C(N(C)C)C(C)O4)C2OC5)c2nc-3cs2)n1)C(N)=O (stereo not drawn) | – | ICR mice, Streptococcus pneumoniae ATCC 49169 infected, immunocompromised, blood | intravenous, 16 mg/kg three times daily | – | AUC(0-t) | 1.01 µM·h |
| NC(=O)[C@H](CCC(=O)O)NC(=O)[C@H](CCC(=O)O)NC(=O)[C@H](Cc1ccc(O)cc1)NC(=O)[C@H](Cc1ccccc1)NC(=O)[C@H](Cc1ccccc1)NC(=O)OCC1c2ccccc2-c2ccccc21 | CD spectroscopy | peptide nanofibres | – | – | random coil content | 52% |
| CN1CCC[C@]1(C)/C=C/S(=O)(=O)NC(=O)Nc1c2c(cc3c1CCC3)CCC2 | item: respiratory, thoracic, mediastinal disorders | human | oral, 100 mg twice daily, 14 days, multiple ascending dose | – | subjects with adverse event | 0% |

A few entries again:
| SMILES | assay | test system | setting | scale | endpoint | value |
| --- | --- | --- | --- | --- | --- | --- |
| CN(Cc1ccccc1)C(=O)CN1CCN(CC(=O)[O-])CCN(Cc2cccc(C(=O)[O-])n2)CC1.[18F-].[Sc+3] | – | mouse, bone | intravenous, 1 h | – | tracer uptake | 0.27 %ID/g |
| N#C[C@@H]1CCCN1C(=O)CNC(=O)c1ccnc2ccc(OCCCN3CCN(C(=O)CCc4ccc5c(c4)CN4CCN(Cc6cc(CCC(=O)O)ccc6O)CC(=O)[O][Al-]([18F])([O]C(=O)C4)[O]5)CC3)cc12 (stereo partly drawn) | – | BALB/c nude mice, U-87 MG tumour | 120 min post-injection | reference: tumour over blood | tumour-to-organ ratio | 10.6 ± 0.78 |
